Measured values collected from several papers.
Each numbered part is a random draw from the data of one study; scales do not carry over between parts. Several values in a cell are separate wells, animals, samples, runs or records.
Chain of UniProt Q15418 (whole entry, looked up): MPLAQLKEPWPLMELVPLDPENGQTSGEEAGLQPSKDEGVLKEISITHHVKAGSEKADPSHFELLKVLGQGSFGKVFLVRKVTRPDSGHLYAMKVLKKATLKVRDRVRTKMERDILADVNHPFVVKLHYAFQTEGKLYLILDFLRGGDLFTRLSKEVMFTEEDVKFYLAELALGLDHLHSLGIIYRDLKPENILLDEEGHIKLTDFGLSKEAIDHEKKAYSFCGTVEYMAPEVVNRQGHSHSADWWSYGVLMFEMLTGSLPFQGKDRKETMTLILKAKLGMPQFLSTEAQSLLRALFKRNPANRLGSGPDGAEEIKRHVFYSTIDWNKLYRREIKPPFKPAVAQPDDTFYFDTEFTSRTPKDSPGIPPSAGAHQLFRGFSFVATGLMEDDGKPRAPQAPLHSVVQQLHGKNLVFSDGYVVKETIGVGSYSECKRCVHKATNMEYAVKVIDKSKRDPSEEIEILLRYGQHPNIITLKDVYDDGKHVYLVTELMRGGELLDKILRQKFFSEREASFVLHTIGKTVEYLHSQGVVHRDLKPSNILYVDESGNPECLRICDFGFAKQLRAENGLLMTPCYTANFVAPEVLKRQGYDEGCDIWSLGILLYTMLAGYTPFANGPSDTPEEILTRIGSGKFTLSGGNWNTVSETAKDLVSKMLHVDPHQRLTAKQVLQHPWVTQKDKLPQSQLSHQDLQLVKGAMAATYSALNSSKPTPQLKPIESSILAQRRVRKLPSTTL
Chain of UniProt P31645 (whole entry, looked up): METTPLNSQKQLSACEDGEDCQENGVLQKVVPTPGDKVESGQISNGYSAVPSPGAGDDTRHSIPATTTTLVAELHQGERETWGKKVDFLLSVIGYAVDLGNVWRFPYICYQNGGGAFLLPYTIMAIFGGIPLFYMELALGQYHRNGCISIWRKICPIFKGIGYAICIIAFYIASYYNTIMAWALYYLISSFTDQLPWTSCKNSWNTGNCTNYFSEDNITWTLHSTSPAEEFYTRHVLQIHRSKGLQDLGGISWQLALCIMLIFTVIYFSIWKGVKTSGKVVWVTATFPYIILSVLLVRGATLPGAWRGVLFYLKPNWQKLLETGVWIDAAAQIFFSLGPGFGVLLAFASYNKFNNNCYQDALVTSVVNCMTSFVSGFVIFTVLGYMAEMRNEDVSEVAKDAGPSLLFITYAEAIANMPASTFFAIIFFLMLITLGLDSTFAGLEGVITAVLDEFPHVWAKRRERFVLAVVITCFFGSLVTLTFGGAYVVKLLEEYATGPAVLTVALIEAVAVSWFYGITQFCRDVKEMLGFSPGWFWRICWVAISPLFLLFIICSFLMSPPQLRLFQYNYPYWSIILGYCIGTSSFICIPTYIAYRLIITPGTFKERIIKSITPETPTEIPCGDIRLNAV
Chain of UniProt P07333 (whole entry, looked up): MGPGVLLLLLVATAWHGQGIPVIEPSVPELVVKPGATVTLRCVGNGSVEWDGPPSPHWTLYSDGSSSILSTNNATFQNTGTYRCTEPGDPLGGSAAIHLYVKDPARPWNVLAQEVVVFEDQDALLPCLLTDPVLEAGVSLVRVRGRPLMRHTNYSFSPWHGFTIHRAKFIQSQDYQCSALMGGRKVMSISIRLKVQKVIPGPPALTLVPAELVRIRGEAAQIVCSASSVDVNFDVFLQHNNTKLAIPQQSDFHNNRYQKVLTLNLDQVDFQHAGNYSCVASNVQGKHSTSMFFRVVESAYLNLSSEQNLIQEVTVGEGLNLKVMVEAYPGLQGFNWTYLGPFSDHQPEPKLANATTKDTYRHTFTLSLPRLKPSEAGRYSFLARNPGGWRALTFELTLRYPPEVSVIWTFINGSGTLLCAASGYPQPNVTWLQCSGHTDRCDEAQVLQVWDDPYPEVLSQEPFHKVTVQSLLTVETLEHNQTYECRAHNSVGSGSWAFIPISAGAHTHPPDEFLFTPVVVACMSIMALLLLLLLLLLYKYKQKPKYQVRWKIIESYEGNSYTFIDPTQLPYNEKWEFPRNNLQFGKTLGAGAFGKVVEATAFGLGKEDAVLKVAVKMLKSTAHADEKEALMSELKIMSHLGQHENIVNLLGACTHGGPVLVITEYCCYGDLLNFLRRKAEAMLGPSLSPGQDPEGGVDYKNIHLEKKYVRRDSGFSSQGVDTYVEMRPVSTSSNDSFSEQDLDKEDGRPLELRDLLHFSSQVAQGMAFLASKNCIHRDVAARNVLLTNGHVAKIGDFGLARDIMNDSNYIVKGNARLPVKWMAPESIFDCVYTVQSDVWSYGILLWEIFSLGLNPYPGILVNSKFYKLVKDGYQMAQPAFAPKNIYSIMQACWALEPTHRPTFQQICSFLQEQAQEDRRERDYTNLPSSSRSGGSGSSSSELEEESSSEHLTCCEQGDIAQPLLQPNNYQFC
Chain of UniProt Q15375 (whole entry, looked up): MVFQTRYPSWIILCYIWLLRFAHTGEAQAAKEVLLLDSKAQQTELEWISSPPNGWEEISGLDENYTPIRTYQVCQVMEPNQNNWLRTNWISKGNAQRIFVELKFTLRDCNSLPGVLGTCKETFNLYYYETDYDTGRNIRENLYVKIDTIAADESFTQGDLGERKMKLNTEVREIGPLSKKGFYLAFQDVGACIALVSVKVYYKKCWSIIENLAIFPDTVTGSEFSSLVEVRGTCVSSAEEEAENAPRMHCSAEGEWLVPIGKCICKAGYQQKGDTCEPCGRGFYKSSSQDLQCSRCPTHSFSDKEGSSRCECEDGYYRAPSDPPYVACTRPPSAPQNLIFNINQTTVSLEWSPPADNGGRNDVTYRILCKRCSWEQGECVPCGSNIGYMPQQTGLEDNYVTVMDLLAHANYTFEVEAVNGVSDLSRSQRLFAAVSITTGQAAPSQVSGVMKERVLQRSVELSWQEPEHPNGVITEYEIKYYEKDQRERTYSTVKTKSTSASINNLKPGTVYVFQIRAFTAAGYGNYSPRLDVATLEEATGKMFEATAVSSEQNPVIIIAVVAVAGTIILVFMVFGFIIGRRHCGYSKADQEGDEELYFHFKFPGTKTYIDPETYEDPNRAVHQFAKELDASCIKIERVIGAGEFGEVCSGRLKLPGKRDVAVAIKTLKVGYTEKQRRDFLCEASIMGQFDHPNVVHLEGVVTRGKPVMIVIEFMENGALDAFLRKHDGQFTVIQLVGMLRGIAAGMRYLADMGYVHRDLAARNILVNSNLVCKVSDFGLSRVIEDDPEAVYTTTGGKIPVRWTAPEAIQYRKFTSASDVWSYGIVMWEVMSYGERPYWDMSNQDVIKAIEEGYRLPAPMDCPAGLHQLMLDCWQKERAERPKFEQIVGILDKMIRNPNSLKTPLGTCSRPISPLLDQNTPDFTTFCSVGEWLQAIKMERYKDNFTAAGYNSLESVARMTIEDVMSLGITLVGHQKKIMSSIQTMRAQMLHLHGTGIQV
Chain of UniProt P43250 (whole entry, looked up): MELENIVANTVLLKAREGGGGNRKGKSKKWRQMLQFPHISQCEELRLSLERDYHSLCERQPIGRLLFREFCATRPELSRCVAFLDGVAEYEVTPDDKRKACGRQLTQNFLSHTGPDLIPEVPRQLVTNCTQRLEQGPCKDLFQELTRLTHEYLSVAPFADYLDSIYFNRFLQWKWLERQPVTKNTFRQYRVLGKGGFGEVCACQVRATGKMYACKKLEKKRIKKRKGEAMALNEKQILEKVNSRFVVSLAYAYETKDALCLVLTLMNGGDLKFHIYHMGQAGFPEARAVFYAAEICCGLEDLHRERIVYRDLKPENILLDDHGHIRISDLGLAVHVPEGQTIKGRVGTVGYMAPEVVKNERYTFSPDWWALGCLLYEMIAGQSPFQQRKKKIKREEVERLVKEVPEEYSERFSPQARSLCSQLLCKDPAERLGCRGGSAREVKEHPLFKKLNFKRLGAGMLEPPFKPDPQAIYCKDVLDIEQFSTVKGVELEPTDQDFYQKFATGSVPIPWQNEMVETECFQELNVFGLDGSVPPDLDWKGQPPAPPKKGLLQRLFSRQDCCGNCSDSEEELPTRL

Block 1
Structure (SMILES): CC(C)n1cnc(-c2ccc(F)cc2)c1-c1ncc(C(=O)Nc2ccc(N3CCN(C)CC3)cc2)[nH]1
Method: phase 2a clinical trial
Host: patients with idiopathic pulmonary fibrosis
For 60 mg once daily, without standard of care: “patients with ALT increase” read 0%.
It gave 0% for “patients with ALT increase” (30 mg once daily, without standard of care).
For 60 mg once daily, together with: standard of care: “patients with ALT increase” read 9.1%.

Block 2
Compound: CO[C@H]1C[C@@H]2CC[C@@H](C)[C@@](O)(O2)C(=O)C(=O)N2CCCC[C@H]2C(=O)O[C@H]([C@H](C)C[C@@H]2CC[C@@H](O)[C@H](OC)C2)CC(=O)[C@H](C)/C=C(\C)[C@@H](O)[C@@H](OC)C(=O)[C@H](C)C[C@H](C)/C=C/C=C/C=C/1C
Observed: enzyme activity
Action: inhibitor
Tested at: 0.5 µM
Baseline: control
The remaining activity was 92.6% (RPS6KB1 (Homo sapiens, UniProt P23443)).
EPHA7 (Homo sapiens, UniProt Q15375) — remaining activity: 89.7%.
For CSF1R (Homo sapiens, UniProt P07333): remaining activity read 101%.
For SRPK3 (Homo sapiens, UniProt Q9UPE1): remaining activity read 97.2%.
It gave 103% for remaining activity (GRK6 (Homo sapiens, UniProt P43250)).
For FLT3 (Homo sapiens, UniProt P36888): remaining activity read 95.6%.
For RPS6KA1 (Homo sapiens, UniProt Q15418): remaining activity read 104%.
SGK1 (Homo sapiens, UniProt O00141) — remaining activity: 101%.

Block 3
Host: human
Medium: microsomes or S9
Tested at: 2 µM
Time: 0.5 h
The remaining compound of `O=c1c2ccccc2nc(NCCCCc2ccccc2)n1-c1ccccc1` is reported as 0.503%.
`OC(Cn1c(Cc2ccccc2)nc2ccccc21)Cn1c2ccc(Cl)cc2c2cc(Cl)ccc21` (stereo not shown) gave a remaining compound of over 99%.
`Cc1c[nH]c(CN2C[C@H]3CC[C@@H]2CN(C(=O)c2ccccc2)C3)c(C)c1=O` has a remaining compound of over 100%.
`CCN(CC)c1nc2c(S(=O)(=O)c3ccccc3)nnn2c2ccsc12` gave a remaining compound of 16.2%.
For `CC(C)COc1cc(=O)n2c(c1C(=O)NCC1CC1)CCCCC2`, the remaining compound was 74.1%.
`Fc1ccc(Oc2ccccc2CNc2nnco2)c(Cl)c1` gave a remaining compound of 96.2%.
With `O=C(N[C@H]1C2C=CC(C2)[C@H]1C(O)(c1ccccc1)c1ccccc1)OCc1ccccc1` (stereo partly shown) the remaining compound was 39%.
For `c1ccc(Cn2c(CNc3nc4ccccc4n3CCN3CCOCC3)nc3ccccc32)cc1`, the remaining compound was 0.343%.

Single results of other studies
The inhibition of `O=C(O)c1cc(-c2ccc(C3CCNCC3)cc2)c2ccc(-c3ccc(C(F)(F)F)cc3)cc2c1` is reported as -2.04% (SLC6A4 (Homo sapiens, UniProt P31645); binding, radioligand binding; 10 µM).
`CC(C)(C)c1cnc(CSc2cnc(NC(=O)C3CCNCC3)s2)o1` gave a viability of 0.809% and 4.97% and 2.8% (HH; trypan blue exclusion; 1 µM, 48 h; baseline: untreated).
The mRNA level of `c1ccc2c(-c3nn4c(-c5ccncc5)nnc4s3)c[nH]c2c1` is reported as 0.631 and 1.01 and 0.744 (Gaucher fibroblasts; qPCR, measured: GBA1 mRNA; 0.5 µM, unit not given; baseline: vehicle).
